Published values gathered from unrelated publications.
Protocols differ between the studies behind these lines.
Chain of UniProt O94768 (whole entry, looked up): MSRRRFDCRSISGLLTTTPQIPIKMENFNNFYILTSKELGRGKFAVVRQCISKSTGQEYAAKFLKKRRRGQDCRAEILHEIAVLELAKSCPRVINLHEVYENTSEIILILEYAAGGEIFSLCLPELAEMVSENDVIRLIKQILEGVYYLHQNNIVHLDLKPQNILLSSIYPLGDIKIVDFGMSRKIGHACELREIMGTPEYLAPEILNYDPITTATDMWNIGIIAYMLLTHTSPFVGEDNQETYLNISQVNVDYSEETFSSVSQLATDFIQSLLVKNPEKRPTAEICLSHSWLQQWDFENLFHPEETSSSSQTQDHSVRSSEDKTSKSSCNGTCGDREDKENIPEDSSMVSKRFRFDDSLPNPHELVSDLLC
Chain of UniProt P29322 (whole entry, looked up): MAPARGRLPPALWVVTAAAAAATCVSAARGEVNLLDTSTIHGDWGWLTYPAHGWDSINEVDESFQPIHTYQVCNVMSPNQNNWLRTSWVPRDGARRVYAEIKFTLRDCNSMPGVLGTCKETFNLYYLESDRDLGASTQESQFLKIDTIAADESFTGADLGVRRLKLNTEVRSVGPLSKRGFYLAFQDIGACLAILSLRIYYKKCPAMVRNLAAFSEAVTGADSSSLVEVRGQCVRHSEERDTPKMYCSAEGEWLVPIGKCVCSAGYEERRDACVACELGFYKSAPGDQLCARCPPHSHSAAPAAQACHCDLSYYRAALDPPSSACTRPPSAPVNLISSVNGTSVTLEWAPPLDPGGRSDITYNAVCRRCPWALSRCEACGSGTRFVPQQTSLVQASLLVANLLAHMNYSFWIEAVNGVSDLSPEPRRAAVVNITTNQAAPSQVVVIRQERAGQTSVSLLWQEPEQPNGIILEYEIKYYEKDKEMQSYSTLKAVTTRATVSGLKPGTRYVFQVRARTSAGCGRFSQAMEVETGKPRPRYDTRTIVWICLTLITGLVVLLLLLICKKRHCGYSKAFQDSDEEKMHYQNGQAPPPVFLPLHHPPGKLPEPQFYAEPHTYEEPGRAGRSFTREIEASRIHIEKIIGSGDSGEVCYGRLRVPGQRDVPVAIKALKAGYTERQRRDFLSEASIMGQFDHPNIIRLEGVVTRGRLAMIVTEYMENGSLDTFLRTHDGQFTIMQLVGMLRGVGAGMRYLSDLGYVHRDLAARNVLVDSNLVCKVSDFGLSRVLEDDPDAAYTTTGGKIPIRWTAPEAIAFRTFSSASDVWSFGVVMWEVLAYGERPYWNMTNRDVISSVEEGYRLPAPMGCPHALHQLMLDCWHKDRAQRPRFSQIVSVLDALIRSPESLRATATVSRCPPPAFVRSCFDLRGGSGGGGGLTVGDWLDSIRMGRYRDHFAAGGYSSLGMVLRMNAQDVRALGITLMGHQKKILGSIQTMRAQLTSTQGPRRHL

SMILES	target or system	test	system	conditions	quantity	result
Cn1nc2c(=O)n(C3CC3)ccc2c1[C@](O)(c1cnc(C(F)(F)F)c(Cl)c1)C(F)(F)F	–	–	Caco-2	–	Papp A→B	46 ×10⁻⁶ cm/s
CC(C)(N)COCC(=O)N1CCC[C@H](C(=O)NCc2nc(-c3ccc(C(F)(F)F)cc3)cs2)C1	–	–	male Sprague-Dawley rat, plasma	oral, 3 mg/kg	AUC	0.065 µM·h
Nc1ccc(-c2nc([C@H]3CCc4cc(-c5cc(Cl)ccc5-n5cnnn5)cc(=O)n43)c(F)[nH]2)c(F)n1	–	–	human, plasma	oral, 80 mg, single dose, fasted	Cmax	942 ng/mL
N=C(N)c1ccc(OCc2ccc(Br)cc2COc2ccc(C(=N)N)cc2)cc1	–	haemolysis	sheep	200 µg/mL, 1 h	haemolysis	12%
Fc1cccc(Nc2nc(-c3ccccn3)nc3ccccc23)c1	–	–	PAMPA	10 µM, 3 h, pH 7.4	Papp	32.1 ×10⁻⁶ cm/s
COc1cc(-c2cncc3c2CN(C)Cc2cc(N4CCNCC4)ccc2-3)cc(OC)c1OC	STK17B (Homo sapiens, UniProt O94768)	enzyme activity, inhibitor	–	1 µM	remaining activity	111%
CCc1cc(-c2noc(-c3cc(OC)nc(C4CCCC4)c3)n2)cc(C)c1OC[C@@H](O)CO	–	–	Wistar rat, plasma	oral, 10 mg/kg, 48 h, single dose	concentration	149 ng/mL
O=C(Nc1ccc(CN2CCOCC2)c(C(F)(F)F)c1)c1ccc(C#Cc2cccc3cnccc23)cn1	–	metabolic stability	mouse, liver microsomes	20 min	compound remaining	22.3%
c1ccc(-c2nc(NCc3ccco3)c3ccccc3n2)nc1	–	metabolic stability	mouse, liver microsomes	–	microsomal CLint	232 µL/min/mg
COc1cc2c3c(n(CCCNC(C)C)c(=O)c2cc1OC)-c1nc2c(cc1C3=O)OCO2	–	–	male CD-1 mouse, plasma	intravenous, 1 mg/kg	clearance	99.2 mL/min/kg
CCn1ccc2c([C@](O)(c3ccc(C(F)(F)F)nc3)C3CC3)n(C)nc2c1=O	–	metabolic stability	human, hepatocytes	0.5 µM, pH 7.4	hepatocyte CLint	1.8 µL/min/10⁶ cells
COc1ccc(C[C@@H](C)[C@@H](C)Cc2ccc(OC)c(OC)c2)cc1OC	–	–	male beagle dog, plasma	oral, 300 mg/kg/day, multiple doses, once daily	AUC(0-t)	13800 ng·h/mL
CCOC(=O)C1=C(CN2CCC[C@@H]2C(=O)Nc2ccc(B(O)O)cc2)NC(c2nccs2)=N[C@H]1c1ccc(F)cc1Br	–	–	CD-1 mouse, plasma	oral, 10 mg/kg	MRT(0-t)	0.81 h
COc1ccc(-c2coc3cc(O)ccc3c2=O)cc1	–	–	Caco-2	100 µg/mL, 2 h	Papp B→A	2.94 ×10⁻⁶ cm/s
N=C(N)c1cccc(OCc2ccc(COc3cccc(C(=N)N)c3)cc2)c1	–	haemolysis	sheep	200 µg/mL, 1 h	haemolysis	0%
CC(C)n1c(Nc2cccnc2)nc2cnc(Nc3ccc(N4CCN(C)CC4)cc3)nc21	–	–	male human, plasma	oral, 150 mg, single dose	AUC(0-inf)	1410 ng·h/mL
N=C(N)c1ccc(OCCCCCOc2ccc(C(=N)N)cc2)cc1	–	haemolysis	sheep	200 µg/mL, 1 h	haemolysis	4%
COc1ccc([C@@H]2CN(C(=O)[C@@H](O)CO)C[C@@]2(C)[C@@H](C)O)cc1OC1CN(c2ccc(C)cn2)C1	–	–	human, plasma	oral, 20 mg, single dose, healthy volunteers	Cmax	482 ng/mL
CCOC(=O)[C@@]12C[C@@H]1[C@@H](n1ccc3c(NC)nc(C#Cc4ccc(Cl)s4)nc31)[C@H](O)[C@@H]2O	–	–	male Sprague-Dawley rat, plasma	oral, 3 mg/kg	Tmax	0.83 h
N=C(N)c1ccc(OCc2cc(Br)cc(COc3ccc(C(=N)N)cc3)c2)cc1	–	haemolysis	sheep	200 µg/mL, 1 h	haemolysis	0.6%
N#C[C@@]12C[C@@H]1[C@@H](n1cnc3c(N[C@@H](C4CCC4)C4CC4)nc(I)nc31)[C@H](O)[C@@H]2O	–	–	male Wistar rat, plasma	oral, 10 mg/kg	MRT(0-t)	2.33 h
O=c1c(O[C@@H]2O[C@H](CO)[C@H](O)[C@H](O)[C@H]2O)c(-c2ccc(O)c(O)c2)oc2cc(O)cc(O)c12	–	–	Caco-2	100 µg/mL	efflux ratio	0.9
c1ccc(C2CCN(c3nc(-c4ccco4)nc4ccccc34)C2)nc1 (stereo not drawn)	–	–	PAMPA	10 µM, 3 h, pH 7.4	Papp	44.4 ×10⁻⁶ cm/s

SMILES	target or system	test	system	conditions	quantity	result
COc1ccc2c(c1)CN(C(=O)CCN1CCC(Cc3ccccc3)CC1)CC[S@@+]2[O-]	–	–	male human, plasma	intravenous, 0.05 mg/kg, healthy volunteers	Vd	71.4 L
CC(C)(O)c1ccccc1CC[C@@H](SCC1(CC(=O)O)CC1)c1cccc(/C=C/c2ccc3ccc(Cl)cc3n2)c1	–	–	human, hepatocytes	4 h, pH 7.4	fraction unbound	0.0015
NCc1cc2c(cc1F)C(=O)N(C1CCC(=O)NC1=O)C2 (stereo not drawn)	–	–	male cynomolgus monkey, plasma	oral, 0.3 mg/kg, 8 h	concentration	0.15 ng/mL
N#Cc1ccc(-c2csc(CNC(=O)[C@H]3CCCN(C(=O)N4CCCC4)C3)n2)cc1	–	metabolic stability	human, liver microsomes	0.5 µM	microsomal CLint	120 µL/min/mg
CC[C@H](C)[C@@H]1NC(=O)[C@@](C)(NC(=O)[C@H](CCCNC(=N)N)NC(=O)[C@H](CC(C)C)NC(=O)[C@@H](NC(=O)[C@H](CCC(N)=O)NC(=O)[C@H](CC(C)C)NC(C)=O)[C@@H](C)O)CCCC=CCCC[C@@](C)(C(=O)N[C@@H](CC(C)C)C(=O)N[C@@H](Cc2ccc3ccccc3c2)C(N)=O)NC(=O)[C@H](CCCNC(=N)N)NC(=O)[C@H](CCC(N)=O)NC1=O	–	–	male BALB/c mouse, plasma	intravenous, 15 mg/kg	AUC(0-inf)	260000 ng·h/mL
CCn1cc(C)c2c([C@H](O)c3ccc(C(F)(F)F)nc3)n(C)nc2c1=O	–	metabolic stability	male Sprague-Dawley rat, hepatocytes	0.5 µM, pH 7.4	hepatocyte CLint	3.7 µL/min/10⁶ cells
CCN1CCN(Cc2ccc(NC(=O)c3ccc(C)c(NC(=O)c4cncc(-c5cccs5)c4)c3)cc2C(F)(F)F)CC1	–	–	mouse, plasma	intraperitoneal, 10 mg/kg, single dose	MRT	2.76 h
CC(=Nc1ccc(N=Cc2cnccn2)cc1)N(C)C	–	–	male Sprague-Dawley rat, plasma	intravenous, 20 mg/kg	Cmax	400 ng/mL
O=C(COc1ccc(Cl)cc1)NC12CC(c3nnc([C@H]4C[C@@H](OC(F)(F)F)C4)o3)(C1)C2	–	–	human, plasma	oral, 200 mg, single dose, fasted, healthy volunteers	AUC	145 µM·h
CC[C@@](N)(c1cnc(C(F)(F)F)c(Cl)c1)c1c2ccn(C3CC3)c(=O)c2nn1C	–	metabolic stability	human, hepatocytes	0.5 µM, pH 7.4	hepatocyte CLint	0.8 µL/min/10⁶ cells
c1ccc(-c2nc(N3CCCC3c3ccccn3)c3ccccc3n2)nc1 (stereo not drawn)	–	metabolic stability	mouse, liver microsomes	–	microsomal CLint	227 µL/min/mg
O=c1c2c([nH]c3cc(Oc4cccc(OC(F)(F)F)c4)ccc13)CCCC2	–	metabolic stability	mouse, liver microsomes	1 µM, pH 7.4	microsomal CLint	0.99 µL/min/mg
O=C(c1ccc(F)cc1)C1CCN(CCn2c(=O)[nH]c3ccccc3c2=O)CC1	–	metabolic stability	dog, liver microsomes	45 min	compound remaining	45.1%
N#Cc1ccccc1-c1nc(N2CCC(c3ccccn3)C2)c2ccccc2n1 (stereo not drawn)	–	–	PAMPA	10 µM, 3 h, pH 7.4	Papp	35.8 ×10⁻⁶ cm/s
CNc1ncc2c(/C=C/C(=O)N3CCC(OC)CC3)nn(Cc3cccc(C(F)(F)F)c3)c2n1	EPHA8 (Homo sapiens, UniProt P29322)	enzyme activity, inhibitor, radiometric	–	1 µM	remaining activity	104%
CC(Nc1nc(-c2ccccn2)nc2ccccc12)c1ccccn1 (stereo not drawn)	–	metabolic stability	mouse, liver microsomes	–	microsomal CLint	51 µL/min/mg
COc1cccc(-c2n[nH]c(SCc3ccccn3)n2)c1OC	–	–	male Sprague-Dawley rat, plasma	oral, 100 mg/kg, 8 h, single dose	concentration	3110 ng/mL
CCn1ccc2c([C@@](O)(CC)c3ccc(C(F)(F)F)nc3)n(C)nc2c1=O	–	metabolic stability	human, hepatocytes	0.5 µM, pH 7.4	hepatocyte CLint	2 µL/min/10⁶ cells
N#Cc1cccc(-c2nc(N3CCC(c4ccccn4)C3)c3ccccc3n2)c1 (stereo not drawn)	–	metabolic stability	mouse, liver microsomes	–	microsomal CLint	561 µL/min/mg
COc1ccc([C@@H](O)c2cc(-c3ncnc4cc(N5CCOCC5)ccc34)c(F)cc2Cl)nn1	–	–	human, plasma	oral, 300 mg, multiple doses, twice daily, patients	Cmax	2360 ng/mL
O=C1CC[C@H](N2Cc3cc(N4CCN(CC5CCN(c6ccc([C@@H]7c8ccc(O)cc8CC[C@@H]7c7ccccc7)cc6)CC5)CC4)ccc3C2=O)C(=O)N1	–	–	female Sprague-Dawley rat, plasma	intravenous, 5 mg/kg, fed	MRT(0-inf)	6.51 h
Cc1c(C(=O)O)ccc2c3n(nc12)[C@@H]1[C@H](C3)N(CC2CC2)[C@@]2(C(=O)Nc3cc(Cl)ccc32)[C@H]1c1cccc(Cl)c1F	–	–	Caco-2	–	efflux ratio	1.2
